Published values gathered from unrelated publications.
Every numbered part comes from another study and shows a few of its results, in no order.
UniProt O00571, sequence (132-607, looked up): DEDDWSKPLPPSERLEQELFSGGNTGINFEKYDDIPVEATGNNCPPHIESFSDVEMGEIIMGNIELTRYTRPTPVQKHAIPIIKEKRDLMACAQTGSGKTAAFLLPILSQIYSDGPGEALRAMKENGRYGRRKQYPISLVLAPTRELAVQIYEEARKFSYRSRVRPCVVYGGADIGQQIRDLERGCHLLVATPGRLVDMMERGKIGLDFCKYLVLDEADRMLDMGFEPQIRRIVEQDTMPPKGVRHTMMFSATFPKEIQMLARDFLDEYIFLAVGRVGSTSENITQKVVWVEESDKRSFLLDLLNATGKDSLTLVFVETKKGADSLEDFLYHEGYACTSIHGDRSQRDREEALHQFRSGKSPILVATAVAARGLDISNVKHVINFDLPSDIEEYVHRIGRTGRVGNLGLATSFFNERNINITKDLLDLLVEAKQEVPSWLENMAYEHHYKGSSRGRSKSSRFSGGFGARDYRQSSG

Sample 1 — Strand: CCUG; method: RNA Bind-n-Seq; molecule type: RNA; sample: in vitro; notes: 4-mer, random 30-nt RNA, single round; reference: input library; reading: higher = stronger binding
EIF4A1: Eukaryotic initiation factor 4A-I (EIF4A1, Homo sapiens, UniProt P60842, residues 1-406, full length assumed)
UniProt P60842, sequence (whole entry, looked up): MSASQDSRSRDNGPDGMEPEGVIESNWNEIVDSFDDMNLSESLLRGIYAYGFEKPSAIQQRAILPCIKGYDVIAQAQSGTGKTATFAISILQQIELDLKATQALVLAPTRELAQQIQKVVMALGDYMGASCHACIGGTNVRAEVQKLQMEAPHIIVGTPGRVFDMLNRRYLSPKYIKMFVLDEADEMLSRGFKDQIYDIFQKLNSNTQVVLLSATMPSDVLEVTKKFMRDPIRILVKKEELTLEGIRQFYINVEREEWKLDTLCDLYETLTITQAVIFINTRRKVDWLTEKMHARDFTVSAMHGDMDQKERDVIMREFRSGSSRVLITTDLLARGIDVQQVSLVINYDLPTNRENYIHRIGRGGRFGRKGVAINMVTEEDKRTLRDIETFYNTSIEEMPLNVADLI
It gave 0.567 fold for 4-mer enrichment (EIF4A1; 15 pmol, together with: 3 µM DMDA-PatA, 2 mM AMP-PNP).
EIF4A1; 90 pmol, together with: 3 µM iPr-DMDA-PatA, 2 mM ADP, 2 mM phosphate — 4-mer enrichment: 0.819 fold.
The 4-mer enrichment was 0.851 fold (ATP-dependent RNA helicase DDX3X, helicase core (DDX3X, Homo sapiens, UniProt O00571, residues 132-607); 90 pmol, together with: 3 µM DMDA-PatA, 2 mM ADP, 2 mM phosphate).

Sample 2 — cell line: HEK-293T; effect on: pseudovirus infection; method: FDA-approved drug library screen; organism: VSV pseudotyped with SARS-CoV-2 spike; concentration: 10 µM; time: 16 h; reference: vehicle-treated
`CCN1CCN(C(=O)N[C@@H](C(=O)N[C@@H]2C(=O)N3[C@@H]2SC(C)(C)[C@@H]3C(=O)O)c2ccccc2)C(=O)C1=O` has a GFP-positive cells of 76%.
The GFP-positive cells of `COc1ccc(-c2ccc3cc(C(=O)O)ccc3c2)cc1C12CC3CC(CC(C3)C1)C2` is reported as 83%.
The GFP-positive cells of `OC(c1cc(C(F)(F)F)nc2c(C(F)(F)F)cccc12)C1CCCCN1` (stereo not drawn) is reported as 37.8%.

Sample 3 — mode: inhibitor; concentration: 20 µM
Target: Replicase polyprotein 1ab, nsp13 helicase (rep, Severe acute respiratory syndrome coronavirus 2, UniProt P0DTD1)
`CN1CCc2c(c3ccccc3n2Cc2ccc(C(=O)NO)cc2)C1` has an inhibition of 3.7%.
`O=C(O)c1cc(=O)c2c(Cl)cc(Cl)cc2[nH]1` has an inhibition of -0.34%.
`O=C(NC(Cc1cc(=O)[nH]c2ccccc12)C(=O)O)c1ccc(Cl)cc1` (stereo not drawn) gave an inhibition of 1.88%.
For `CC(=Nc1ccccc1N)c1c(C)cc(=O)n(O)c1O`, the inhibition was -2.07%.
`CCN(CC)CC1CCCCN1CC(=O)N1c2ccccc2C(=O)Nc2cccnc21` (stereo not drawn) has an inhibition of 5.37%.
The inhibition of `COc1ccccc1N1CCN(CCN2C(=O)CC3(CCCC3)CC2=O)CC1` is reported as 4.95%.
With `COC(=O)c1cccnc1` the inhibition was 3.53%.
`O[C@H]1[C@H](O)[C@@H](O)[C@H](O)[C@@H](O)[C@H]1O` has an inhibition of 2.14%.
With `CNC(=O)ON(C(C)=O)C(=O)NC` the inhibition was 59.9%.
The inhibition of `Cc1ccc(C(=O)Nc2ccc(Oc3cc4cnn(C)c4cc3-c3cn[nH]c3)c(F)c2)c(=O)n1-c1ccc(F)cc1` is reported as -3.62%.
For `CCOC(=O)n1ccn(C)c1=S`, the inhibition was 7.47%.
`O=C(O)Cc1cccnc1C(=O)O` gave an inhibition of 1.59%.
The inhibition of `COc1ccc(-c2sc(NC(=O)C(C)(C)C)nc2C)cc1S(=O)(=O)Nc1ccc(O)cc1` is reported as 1.51%.
With `CCCCCCCCCCCCCCCCCC(=O)OCC(O)CO` (stereo not drawn) the inhibition was 0.97%.
The inhibition of `CCOc1ccc2ccccc2c1C(=O)N[C@@H]1C(=O)N2[C@@H]1SC(C)(C)[C@@H]2C(=O)O` is reported as 5.8%.
`COc1ccc(C(=O)Nc2c(Cl)cncc2Cl)cc1OC1CCCC1` has an inhibition of 4.98%.
`O=C(O)COc1cccc(CN(Cc2ccc(-n3cccn3)cc2)S(=O)(=O)c2cccnc2)c1` gave an inhibition of 5.86%.
`NCC(=O)N1C[C@H](NC(=O)c2ccccc2)C[C@H]1C(=O)O` has an inhibition of -1.01%.
For `CN(C)CCNc1nc2cc(O)ccc2c2c1C(=O)c1ccccc1-2`, the inhibition was 103%.
`Nc1ccc(S(=O)(=O)Nc2ccnn2-c2ccccc2)cc1` has an inhibition of -4.27%.
For `Cc1c(Cl)cccc1S(=O)(=O)Nc1nc(NCCc2ccccc2)nc2c1CN(Cc1ccccc1)CC2`, the inhibition was 4.2%.
`COc1cccc2c1c(O)c(C(=O)N(C)c1ccc(C(F)(F)F)cc1)c(=O)n2C` gave an inhibition of 0.37%.
With `S=C=Nc1ccc(N=C=S)cc1` the inhibition was 7.42%.
`Nc1c(CC(=O)O)cccc1C(=O)c1ccccc1` gave an inhibition of 5.23%.
`CN1C(=O)C(N2CCCCC2)S/C1=C\C(=O)O` (stereo not drawn) gave an inhibition of 55.3%.

Sample 4 — method: protein binding microarray; molecule type: double-stranded DNA, one strand shown; sample: in vitro; concentration: not given; reference: not given; reading: higher = stronger binding
Target: Histone acetyltransferase KAT6A, winged helix 2, GST fusion (KAT6A, Homo sapiens, UniProt Q92794, residues 85-181)
Notes: 8-mer, flanks averaged, mean of 2 arrays, mostly near background
Residues (chain): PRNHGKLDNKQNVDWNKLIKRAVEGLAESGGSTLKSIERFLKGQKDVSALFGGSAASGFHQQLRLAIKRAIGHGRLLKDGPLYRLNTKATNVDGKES
With `CTTTAGGC` the E-score was -0.0334.
The E-score of `AGCTAGAC` is reported as -0.0598.
The E-score of `CGTGACTA` is reported as -0.0457.
`GGGCTAAC` has an E-score of -0.0412.
For `CTATGCCC`, the E-score was 0.0947.
For `AGTAGGGA`, the E-score was -0.111.
The E-score of `AAGGAGGA` is reported as -0.0305.
For `AGGACCCG`, the E-score was 0.0557.

Sample 5 — method: protein-binding microarray; molecule type: double-stranded DNA, one strand shown; sample: in vitro; concentration: 250 nM; notes: 60-bp whole probe; together with: salmon DNA 0.4 mg/ml; reference: random background probes; reading: higher = stronger binding
Target: Interferon regulatory factor 7, full length, phosphomimetic (IRF7, Homo sapiens, UniProt Q92985, residues 1-503, S101K/S471D/S472D/S475D/S476D/S477D/S483D/S484D/S487D)
Shared flanks, not repeated: GCCTAGCAC … GTGCTAGGTCTTGATTCGCTTGACGCTGCTG
Construct (chain): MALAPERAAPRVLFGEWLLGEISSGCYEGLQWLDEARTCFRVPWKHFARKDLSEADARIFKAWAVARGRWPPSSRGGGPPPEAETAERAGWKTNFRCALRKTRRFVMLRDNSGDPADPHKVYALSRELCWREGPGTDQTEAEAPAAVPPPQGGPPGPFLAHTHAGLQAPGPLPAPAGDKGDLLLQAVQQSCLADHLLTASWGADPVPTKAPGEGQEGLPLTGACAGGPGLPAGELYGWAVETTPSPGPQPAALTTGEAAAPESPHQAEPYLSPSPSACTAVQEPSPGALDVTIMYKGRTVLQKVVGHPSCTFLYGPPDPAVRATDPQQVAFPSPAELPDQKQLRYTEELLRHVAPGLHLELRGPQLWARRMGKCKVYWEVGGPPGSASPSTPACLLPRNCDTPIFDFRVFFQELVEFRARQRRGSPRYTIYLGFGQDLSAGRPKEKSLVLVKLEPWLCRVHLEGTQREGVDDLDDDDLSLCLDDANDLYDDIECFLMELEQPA
For `GACGGTTTCGTTTTCCTGAC`, the log fluorescence was 14.3 z-score.
`TTAGGTTTCCTTTTCCATTA` gave a log fluorescence of 6.76 z-score.
For `TTAGGGATCCTTATCCTTTA`, the log fluorescence was -0.223 z-score.
With `TGAGGACTGCTTATCCTTTA` the log fluorescence was -0.355 z-score.
With `AACGGACTGGGTTTCGGGAC` the log fluorescence was 1.98 z-score.
`TAAGGTTTCCTTTCCCTTTA` gave a log fluorescence of 5.52 z-score.
For `GACGATATCAGTTTTGAGAC`, the log fluorescence was 0.421 z-score.
For `GACGAACTGACTATCGAGAC`, the log fluorescence was -0.262 z-score.

Mixed results
WRKY33 C-terminal DNA-binding domain: Probable WRKY transcription factor 33, C-terminal DNA-binding domain (WRKY33, Arabidopsis thaliana, UniProt Q8S8P5, residues 346-449)
UniProt Q8S8P5, sequence (346-449, looked up): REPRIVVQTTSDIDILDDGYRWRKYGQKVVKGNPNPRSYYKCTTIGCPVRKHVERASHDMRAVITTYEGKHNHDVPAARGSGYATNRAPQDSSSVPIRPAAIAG
UniProt Q8S8P5, sequence (169-264, looked up): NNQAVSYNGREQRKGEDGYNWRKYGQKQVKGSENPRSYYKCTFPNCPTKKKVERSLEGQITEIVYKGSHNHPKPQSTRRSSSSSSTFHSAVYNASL
For `AAAAAATTCCGCGTGTATGTGTACGTAAAA`, the relative absorbance was 66.8 % of maximum (WRKY33 C-terminal DNA-binding domain; DNA-protein interaction ELISA; double-stranded DNA, one strand shown, in vitro, bacterial lysate; not given, whole dsDNA probe, crude lysate protein; reference: highest signal in screen, higher = stronger binding).
For `CSc1ccc(C(=O)c2[nH]c(=O)[nH]c2C)cc1`, the inhibition was 84.4% (Replicase polyprotein 1ab, main protease (rep, Severe acute respiratory syndrome coronavirus 2, UniProt P0DTD1); enzyme activity, inhibitor; 20 µM, primary screen).
For `AAAAAACCCTACATCGCATATAAGAGAAAA`, the relative absorbance was 20.7 % of maximum (Probable WRKY transcription factor 33, N-terminal DNA-binding domain (WRKY33, Arabidopsis thaliana, UniProt Q8S8P5, residues 169-264); DNA-protein interaction ELISA; double-stranded DNA, one strand shown, in vitro, bacterial lysate; not given, whole dsDNA probe, crude lysate protein; reference: highest signal in screen, higher = stronger binding).
With `AAAAAACAGGCCGATTCCGATCCCGGAAAA` the relative absorbance was 32.1 % of maximum (WRKY33 C-terminal DNA-binding domain; DNA-protein interaction ELISA; double-stranded DNA, one strand shown, in vitro, bacterial lysate; not given, whole dsDNA probe, crude lysate protein; reference: highest signal in screen, higher = stronger binding).

A few entries again (sample 3):
`O[C@H]1[C@H](O)[C@@H](O)[C@H](O)[C@@H](O)[C@H]1O` has an inhibition of 2.14%.
With `CNC(=O)ON(C(C)=O)C(=O)NC` the inhibition was 59.9%.
The inhibition of `Cc1ccc(C(=O)Nc2ccc(Oc3cc4cnn(C)c4cc3-c3cn[nH]c3)c(F)c2)c(=O)n1-c1ccc(F)cc1` is reported as -3.62%.
For `CCOC(=O)n1ccn(C)c1=S`, the inhibition was 7.47%.
`O=C(O)Cc1cccnc1C(=O)O` gave an inhibition of 1.59%.
The inhibition of `COc1ccc(-c2sc(NC(=O)C(C)(C)C)nc2C)cc1S(=O)(=O)Nc1ccc(O)cc1` is reported as 1.51%.
With `CCCCCCCCCCCCCCCCCC(=O)OCC(O)CO` (stereo not drawn) the inhibition was 0.97%.
